# Results of several laboratories.
# Protocols differ between the studies behind these lines.
# Method: steady-state kinetics
# B1: vioC (Streptomyces vinaceus, UniProt Q6WZB0); chain MTESPTTHHGAAPPDSVATPVRPWSEFRLTPAEAAAAAALAARCAQRYDETDGPEFLLDAPVIAHELPRRLRTFMARARLDAWPHALVVRGNPVDDAALGSTPVHWRTARTPGSRPLSFLLMLYAGLLGDVFGWATQQDGRVVTDVLPIKGGEHTLVSSSSRQELGWHTEDAFSPYRADYVGLLSLRNPDGVATTLAGVPLDDLDERTLDVLFQERFLIRPDDSHLQVNNSTAQQGRVEFEGIAQAADRPEPVAILTGHRAAPHLRVDGDFSAPAEGDEEAAAALGTLRKLIDASLYELVLDQGDVAFIDNRRAVHGRRAFQPRYDGRDRWLKRINITRDLHRSRKAWAGDSRVLGQR
# B2: enzyme (Mortierella alpina, UniProt U5Y6A8); chain MAPPHVVDEQVRRRIVVEDEIQSKKQFERNYVPMDFTIKEIRDAIPAHLFIRDTTKSILHVVKDLVTIAIVFYCATFIETLPSLALRVPAWITYWIIQGTVMVGPWILAHECGHGAFSDSKTINTIFGWVLHSALLVPYQAWAMSHSKHHKGTGSMSKDVVFIPATRSYKGLPPLEKPAAEEEVLEQEHHHHEESIFAETPIYTLGALFFVLTLGWPLYLIMNFSGHEAPHWVNHFQTVAPLYEPHQRKNIFYSNCGIVAMGSILTYLSMVFSPLTVFMYYGIPYLGVNAWIVCITYLQHTDPKVPHFRDNEWNFQRGAACTIDRSFGTIVNHLHHHIGDSHQCHHMFSQMPFYNAVEATKHLKAKLGKYYIFDDTPIAKALYRNWRECKFVEDEGDVVFYKH
# B3: enzyme (Aedes aegypti, UniProt Q1HQH4); chain MSLLARFRGFPTALLQHAKVSYSSAATAAKLQELALEENCILVNEKDQSLGNASKRDCHRVDENGNIRLHRAFSVFLFNSKGEMLLQRRSTHKITFPDCYTNACCSHPLHDIEGEREELNALGIRRAAQRRLNYELGIPLSQVRPENFHFLTRIHYADKGDGVWGEHEIDYILFLQKDVDLKPNESEVSEIRYIRRDQLDNQISGLDAPLTPWFQLILTHRLKLWWDNLHRLKKYQNLNEIERF
# B4: enzyme R447A (Sinorhizobium meliloti, UniProt Q92UV7); chain MTNAEVTIAVRHEPMRIAGRLVDTDDRVEVRYPWNDTVVGTVPAGRAEHAREAFAIAAAYQPKLTRYERQKILLATAEALAARKEEISDVITLELGISKADSLYEVGRAFDVFTLAGQMCIRDDGEIFSCDLTPHGKARKIFTMREPLTAISAITPFNHPLNMVAHKVAPAIATNNCVVVKPTELTPMTALLLADILYEAGLPPEMLSVVTGWPADIGMEMITNPHVDLVTFTGSVPVGKLIAANAHYKRQVLELGGNDPLIILNDLSDDDLARAADLAVAGATKNSGQRCTAVKRILCQESVADRFVPLVLERAKRLRFGDPMDRSTDLGTVIHEKAAALFEERVMRAAEEGADILYHPGRSGALLPPIVVDRVPHQSDLVLEETFGPIIPIVRVPDDDDATITLSNSTAFGLSSGVCTNDYRRMQKYIAGLKVGTVNIWEVPGYAIEMSPFGGIKDSGNGYKEGVIEAMKSFTNVKTFSLPWP
# B5: NahK (Pseudomonas putida, UniProt Q1XGK3); chain MNRTLTREQVLALAEHIENAELNVHDIGKVTNDFPEMTFADAYDVQWEIRRRKEARGNKIVGLKMGLTSWAKMAQMGVETPIYGFLADYFSVPDGGVVDCSKLIHPKIEAEISVVTKAPLHGPGCHLGDVIAAIDYVIPTVEVIDSRYENFKFDLISVVADNASSTRFITGGRMASLEEVDLRTLGVVMEKNGEVVELGAGAAVLGHPLSSVAMLANLLAERGEHIPAGTFIMTGGITAAVPVAPGDNITVRYQGLGSVSARFI
# B6: speck E82A (Drosophila melanogaster, UniProt Q94521); chain MEDALTVSGKPAACPVDQDCPYTIELIQPEDGEAVIAMLKTFFFKDAPLNTFLDLGECKELEKYSLKPLPDNCSYKAVNKKGEIIGVFLNGLMRRPSPDDVPEKAADSCEHPKFKKILSLMDHVEEQFNIFDVYPDEELILDGKILSVDTNYRGLGIAGRLTERAYEYMRENGINVYHVLCSSHYSARVMEKLGFHEVFRMQFADYKPQGEVVFKPAAPHVGIQVMAKEVGPAKAAQTKL
# B7: cbh1 (Trichoderma reesei, UniProt P62694); chain QSACTLQSETHPPLTWQKCSSGGTCTQQTGSVVIDANWRWTHATNSSTNCYDGNTWSSTLCPDNETCAKNCCLDGAAYASTYGVTTSGNSLSIGFVTQSAQKNVGARLYLMASDTTYQEFTLLGNEFSFDVDVSQLPCGLNGALYFVSMDADGGVSKYPTNTAGAKYGTGYCDSQCPRDLKFINGQANVEGWEPSSNNANTGIGGHGSCCSEMDIWEANSISEALTPHPCTTVGQEICEGDGCGGTYSDNRYGGTCDPDGCDWNPYRLGNTSFYGPGSSFTLDTTKKLTVVTQFETSGAINRYYVQNGVTFQQPNAELGSYSGNELNDDYCTAEEAEFGGSSFSDKGGLTQFKKATSGGMVLVMSLWDDYYANMLWLDSTYPTNETSSTPGAVRGSCSTSSGVPAQVESQSPNAKVTFSNIKFGPIGSTGNPSGGNPPGGNRGTTTTRRPATTTGSSPGPTQSHYGQCGGIGYSGPTVCASGTTCQVLNPYYSQCL
# B8: protein (Danio rerio, UniProt F1QXD3); chain MALSRALRCCQRIFSWIPVIIISSVVLWSYYAYVFELCFVTLSNNLERVTYLLIFHVCFIMFCWTYWKAIFTPPSTPTKKFHLSYTDKERYEMEERPEVQKQILVDIAKKLPIFTRAQSGAIRFCDRCQVIKPDRCHHCSVCETCVLKMDHHCPWVNNCVGFSNYKFFLLFLSYSMIYCVFIASTVFQYFLKFWVGDLPNGPAKFHVLFLLFVALMFFVSLMFLFGYHCWLVAKNRSTLEAFSPPVFQNGPDRNGFNVGLSKNLRQVFGEHKKLWFIPVFTSQGDGHYFPLRTLRESENPLLANEEKWVEDGGSDEESADENGSSLLIRTES
# B9: UGT1A9 (Homo sapiens, UniProt O60656); chain GKLLVVPMDGSHWFTMRSVVEKLILRGHEVVVVMPEVSWQLGRSLNCTVKTYSTSYTLEDLDREFKAFAHAQWKAQVRSIYSLLMGSYNDIFDLFFSNCRSLFKDKKLVEYLKESSFDAVFLDPFDNCGLIVAKYFSLPSVVFARGILCHYLEEGAQCPAPLSYVPRILLGFSDAMTFKERVRNHIMHLEEHLLCHRFFKNALEIASEILQTPVTEYDLYSHTSIWLLRTDFVLDYPKPVMPNMIFIGGINCHQGKPLPMEFEAYINASGEHGIVVFSLGSMVSEIPEKKAMAIADALGKIPQTVLWRYTGTRPSNLANNTILVKWLPQNDLLGHPMTRAFITHAGSHGVYESICNGVPMVMMPLFGDQMDNAKRMETKGAGVTLNVLEMTSEDLENALKAVINDKSYKENIMRLSSLHKDRPVEPLDLAVFWVEFVMRHKGAPHLRPAAHDLTWYQYHSLDVIGFLLAVVLTVAFITFKCCAYGYRKCLGKKGRVKKAHKSKTH
# B10: protein (UniProt A0A4Y6I0S2); chain MTFEEKPMKFDGLDIEGVAFAPSVAALGSAKPLVLGGAGDRGLEINGNYIKFTAIGIYIEDGIIPHLSSKLSGKTVLELCEKDLLFEEVIYAPFEKLVRVVFIAPLTGIQYSEKVLERISVQALYTDIKEEHKQQFLEIFKGESFPPQSSAILSFSKEGLKVAFSKGDDVPAKAVGTIENARFADAVLGTIIWRDGVSPAAKVSLAERVSKYLQLGPSDGLASVPQSK
# B11: protein G95D/P94L (Streptomyces coelicolor, UniProt P16544); chain MATQDSEVALVTGATSGIGLEIARRLGKEGLRVFVCARGEEGLRTTLKELREAGVEADGRTCDVRSVPEIEALVAAVVERYGPVDVLVNNAGRLDGGATAELADELWLDVVETNLTGVFRVTKQVLKAGGMLERGTGRIVNIASTGGKQGVVHAAPYSASKHGVVGFTKALGLELARTGITVNAVCPGFVETPMAASVREHYSDIWEVSTEEAFDRITARVPIGRYVQPSEVAEMVAYLIGPGAAAVTAQALNVCGGLGNY
# B12: PLBD1 self-cleaved, cathepsin L-processed (Homo sapiens, UniProt Q6P4A8); chain 1 GVYYATAYWMPAEKTVQVKNVMDKNGDAYGFYNNSVKTTGWGILEIRAGYGSQTLSNEIIMFVAGFLEGYLTAPHMNDHYTNLYPQLITKPSIMDKVQDFMEKQDKWTRKNIKEYKTDSFWRHTGYVMAQIDGLYVGAKKRAILEGTKPMTLFQIQFLNSVGDLLDLIPS; chain 2 CSALIKVLPGFENILFAHSSWYTYAAMLRIYKHWDFNVIDKDTSSSRLSFSSYPGFLESLDDFYILSSGLILLQTTNSVFNKTLLKQVIPETLLSWQRVRVANMMADSGKRWADIFSKYNSGTYNNQYMVLDLKKVKLNHSLDKGTLYIVEQIPTYVEYSEQTDVLRKGYWPSYNVPFHEKIYNWSGYPLLVQKLGLDYSYDLAPRAKIFRRDQGKVTDTASMKYIMRYNNYKKDPYSRGDPCNTICCREDLNSPNPSPGGCYDTKVADIYLASQYTSYAISGPTVQGGLPVFRWDRFNKTLHQGMPEVYNFDFITMKPILKLDIK
# Sequence of UniProt Q11203 (whole entry, looked up): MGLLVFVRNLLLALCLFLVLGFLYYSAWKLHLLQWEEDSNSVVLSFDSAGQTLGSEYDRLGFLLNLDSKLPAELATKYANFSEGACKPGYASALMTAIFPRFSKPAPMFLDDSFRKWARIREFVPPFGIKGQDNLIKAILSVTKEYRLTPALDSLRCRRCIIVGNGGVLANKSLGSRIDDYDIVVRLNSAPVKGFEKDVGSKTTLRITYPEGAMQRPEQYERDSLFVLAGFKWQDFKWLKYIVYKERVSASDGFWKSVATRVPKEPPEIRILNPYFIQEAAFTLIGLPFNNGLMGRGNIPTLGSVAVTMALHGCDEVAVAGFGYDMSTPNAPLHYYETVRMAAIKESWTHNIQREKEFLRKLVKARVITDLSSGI
# Sequence of UniProt P15424 (whole entry, looked up): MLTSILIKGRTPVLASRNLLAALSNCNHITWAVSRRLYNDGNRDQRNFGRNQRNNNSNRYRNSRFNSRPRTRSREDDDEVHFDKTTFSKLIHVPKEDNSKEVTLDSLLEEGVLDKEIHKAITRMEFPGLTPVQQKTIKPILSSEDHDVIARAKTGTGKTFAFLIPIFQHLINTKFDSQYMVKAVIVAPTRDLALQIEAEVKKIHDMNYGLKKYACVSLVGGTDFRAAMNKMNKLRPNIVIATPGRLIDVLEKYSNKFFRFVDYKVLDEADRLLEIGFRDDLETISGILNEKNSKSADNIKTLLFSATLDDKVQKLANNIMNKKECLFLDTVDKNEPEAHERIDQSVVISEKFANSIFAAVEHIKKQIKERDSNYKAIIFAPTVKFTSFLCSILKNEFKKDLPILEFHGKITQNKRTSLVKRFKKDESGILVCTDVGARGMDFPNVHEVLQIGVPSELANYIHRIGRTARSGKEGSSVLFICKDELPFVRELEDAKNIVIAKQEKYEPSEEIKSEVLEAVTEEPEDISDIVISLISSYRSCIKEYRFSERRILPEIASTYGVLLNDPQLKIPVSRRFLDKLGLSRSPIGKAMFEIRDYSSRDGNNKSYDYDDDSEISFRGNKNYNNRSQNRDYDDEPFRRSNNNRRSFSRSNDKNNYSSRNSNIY
# Sequence of UniProt P0A6Z1 (whole entry, looked up): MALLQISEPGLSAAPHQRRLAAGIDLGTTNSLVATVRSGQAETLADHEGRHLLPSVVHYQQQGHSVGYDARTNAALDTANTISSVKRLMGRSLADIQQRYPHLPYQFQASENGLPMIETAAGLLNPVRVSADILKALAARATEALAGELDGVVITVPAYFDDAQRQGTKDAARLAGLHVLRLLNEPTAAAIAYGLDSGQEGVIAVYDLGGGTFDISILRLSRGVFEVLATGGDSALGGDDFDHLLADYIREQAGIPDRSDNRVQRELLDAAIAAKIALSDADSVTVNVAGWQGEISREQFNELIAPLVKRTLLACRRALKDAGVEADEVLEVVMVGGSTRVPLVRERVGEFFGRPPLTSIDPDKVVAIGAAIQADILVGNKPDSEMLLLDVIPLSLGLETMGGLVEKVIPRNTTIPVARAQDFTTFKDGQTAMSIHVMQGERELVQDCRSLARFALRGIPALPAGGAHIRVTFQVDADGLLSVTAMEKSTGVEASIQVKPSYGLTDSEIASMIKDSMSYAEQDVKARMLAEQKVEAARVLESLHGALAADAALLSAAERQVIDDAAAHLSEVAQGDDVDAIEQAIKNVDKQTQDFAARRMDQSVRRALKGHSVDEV
Molecule,substrate,pH,temperature,notes,with,Km
"Gcs (Leishmania donovani, UniProt Q67BG3)",N[C@@H](CCC(=O)O)C(=O)O,,,apparent,"ATP, L-cysteine, Mg2+",9200 µM
"hscA (Escherichia coli, UniProt P0A6Z1)",Nc1ncnc2c1ncn2[C@@H]1O[C@H](COP(=O)(O)OP(=O)(O)OP(=O)(O)O)[C@@H](O)[C@H]1O,pH 7.3,25 °C,,,22.8 µM
"enzyme (Vitis vinifera, UniProt F6H697)",O=C(O)Cc1cccc2ccccc12,pH 8.6,25 °C,,,190 µM
"MSS116 (Saccharomyces cerevisiae, UniProt P15424)",Nc1ncnc2c1ncn2[C@@H]1O[C@H](COP(=O)(O)OP(=O)(O)OP(=O)(O)O)[C@@H](O)[C@H]1O,pH 7.5,37 °C,,ATP,100 µM
B1 (vioC),N=C(N)NCCCC[C@H](N)C(=O)O,pH 8,30 °C,,alpha-ketoglutarate 1.0 mM,7050 µM
B2 (enzyme),CCCCC/C=C\C/C=C\CCCCCCCC(=O)SCCNC(=O)CCNC(=O)[C@H](O)C(C)(C)COP(=O)(O)OP(=O)(O)OC[C@H]1O[C@@H](n2cnc3c(N)ncnc32)[C@H](O)[C@@H]1OP(=O)(O)O,pH 7.5,28 °C,,,15.9 µM
B3 (enzyme),C=C(C)CCO[P@@](=O)(O)OP(=O)(O)O,pH 8,35 °C,,,277 µM
B4 (enzyme R447A),NC(=O)c1ccc[n+]([C@@H]2O[C@H](COP(=O)(O)OP(=O)(O)OC[C@H]3O[C@@H](n4cnc5c(N)ncnc54)[C@H](O)[C@@H]3O)[C@@H](O)[C@H]2O)c1,pH 7.5,30 °C,cofactor varied,,54 µM
B5 (NahK),O=C(O)C/C=C/C(=O)C(=O)O,pH 7.4,25 °C,sodium phosphate 20 mM,MgCl2 5 mM,19.9 µM
B6 (speck E82A),CC(=O)SCCNC(=O)CCNC(=O)[C@H](O)C(C)(C)COP(=O)(O)OP(=O)(O)OC[C@H]1O[C@@H](n2cnc3c(N)ncnc32)[C@H](O)[C@@H]1OP(=O)(O)O,pH 7.2,30 °C,,,40 µM
B7 (cbh1),O=[N+]([O-])c1ccccc1O[C@@H]1O[C@H](CO)[C@@H](O[C@@H]2O[C@H](CO)[C@@H](O)[C@H](O)[C@H]2O)[C@H](O)[C@H]1O,pH 5,25 °C,apparent,,7 µM
B8 (protein),CCCCCCCCCCCCCCCC(=O)SCCNC(=O)CCNC(=O)[C@H](O)C(C)(C)COP(=O)(O)OP(=O)(O)OC[C@H]1O[C@@H](n2cnc3c(N)ncnc32)[C@H](O)[C@@H]1OP(=O)(O)O,pH 6.8,30 °C,,,10 µM
B9 (UGT1A9),CCN(CC)C(=O)/C(C#N)=C/c1cc(O)c(O)c([N+](=O)[O-])c1,pH 7.4,37 °C,,,8.64 µM
B10 (protein),O=C(/C=C/c1ccc(O)cc1)c1c(O)cc(O)cc1O,,,,,90.3 µM
"ST3GAL3 (Homo sapiens, UniProt Q11203)",CC(=O)N[C@H]1[C@H](O[C@H]2[C@@H](O)[C@@H](CO)O[C@@H](O[C@H]3[C@H](O)[C@@H](O)[C@H](Oc4ccc([N+](=O)[O-])cc4)O[C@@H]3CO)[C@@H]2O)O[C@H](CO)[C@@H](O)[C@@H]1O[C@@H]1O[C@H](CO)[C@H](O)[C@H](O)[C@H]1O,pH 6,,,CMP-Neu5Ac,130 µM
B11 (protein G95D/P94L),O[C@H]1CCCc2ccccc21,pH 7.4,,"phosphate 400 mM, NADPH 250 µM printed","NADP+, reverse reaction",8700 µM
B12,CC[C@H](C)[C@H](N)C(=O)Nc1ccc2c(C)cc(=O)oc2c1,pH 4.5,37 °C,,cathepsin L,32.4 µM
